Measured values of several laboratories.
Compare with care: the assays were run in different laboratories. “And” joins repeats or separate records; there may be more than shown. ± gives the spread as reported.

| SMILES | target or system | test | test system | conditions | scale | quantity | result |
| --- | --- | --- | --- | --- | --- | --- | --- |
| COc1ncc(-c2nc3c(n2C(C)C)[C@H](c2ccc(Cl)cc2)N(c2cc(Cl)cn(C)c2=O)C3=O)c(OC)n1 | – | – | human patients, plasma | oral, 1 mg, low-dose arm, cycle 1 day 8 | – | median Tmax | 4 h |
| Nc1ncnc2c1ncn2[C@@H]1O[C@H](CO)C[C@H]1O | – | LDH release | human ESC-derived lung organoids | concentration not given, 4 days | – | cytotoxicity | 20.7% and 17.2% and 13.2% |
| CCC(CC)C(=O)Oc1cccc(C(O)CCN)c1.O=CO (stereo not drawn) | – | scotopic ERG | BALB/cJ mice | intraperitoneal, 10 mg/kg, 1 h dark adaptation, together with: 10,000 lx photobleach, 10 min | – | ERG a-wave amplitude | 32 µV and 11 µV and 28 µV and 25 µV and 7 µV and 15 µV |
| CNC(=O)c1ccc(-c2cnc3ncc(Cc4ccc5ncccc5c4)n3n2)cc1F | – | – | Japanese patients | oral, 400 mg, grade 3/4 | – | Constipation dose reduction/interruption | 1% |
| O=C(O[C@]12C[C@H]3C[C@H](C[C@H](C3)C1)C2)c1ccc(NCc2cc(O)ccc2O)cc1 | Toxoplasma gondii | parasite growth | HFF, bradyzoite, alkaline-induced | – | – | EC50 | 7.17 µM |
| N#Cc1ccc2c(c1)[C@H]1CCCN(C(=O)c3ccc4[nH]cnc4c3)[C@H]1C2 | – | – | human males | 360 mg, end of trial | – | total testosterone level | 13.7 nmol/L |
| O=C(O)c1cccc2ccccc12 | – | – | sheep erythrocytes | 1 h, pH 7.5 | – | maximum haemolysis | 6.49% |
| COc1cc2[nH]c(C)c(-c3ccc(-c4ccccc4)cc3)c(=O)c2cc1Cl | – | – | PAMPA | pH 7.4 | – | Papp | < 5 ×10⁻⁶ cm/s |
| CCC1(C)CC(OC(=O)CSc2nnc(N)[nH]2)C2(C)C(C)CCC3(CCC(=O)C32)C(C)C1O (stereo not drawn) | – | – | sheep erythrocytes | 1 h, pH 7.5 | – | maximum haemolysis | 3.07% |
| Cc1cc(Nc2ccc(S(F)(F)(F)(F)F)cc2)n2nc(C(C)(F)F)nc2n1 | – | – | Plasmodium vivax malaria patients | oral, 400 mg | – | adverse event Nausea | 0% |
| C[C@@H](Nc1cc(F)cc(F)c1)c1cc(C(=O)N(C)C)cc2c(=O)cc(N3CCOCC3)oc12 | – | measured: M1 metabolite | human | oral, 120 mg, single dose day 1, 5:2 BID regimen | – | AUC(0-12 h) | 3550 ng·h/mL |
| Cc1nc(-c2ccc(OCC(C)C)c(C#N)c2)sc1C(=O)O | – | – | KM mouse, chronic hyperuricaemia model, serum | dose not given | – | AST | 174 U/L and 185 U/L and 198 U/L and 172 U/L and 177 U/L |
| Cc1ccc(C(=O)N(CCCN)C(c2nc3snc(C)c3c(=O)n2Cc2ccccc2)C(C)C)cc1 (stereo not drawn) | – | – | human patients | intravenous, 7 mg/day | – | grade ≥3 hyperbilirubinemia patients | 0% |
| CCCCCCCOc1ccc(CCC(N)(CO)CO)cc1C(F)(F)F.Cl | – | – | healthy men, plasma | oral, 0.25 mg, day 1 | – | AUC(0-tau) | 2.59 ng·h/mL |
| CCCCC[C@H](O)CC[C@@H]1[C@H]2Cc3cccc(OCC(=O)O)c3C[C@H]2C[C@H]1O | – | LC-MS/MS | male Japanese PAH patients, plasma | inhaled, 54 µg | – | geometric mean Cmax | 0.7 ng/mL |
| O=C(CCCN1CCC(O)(c2ccc(Cl)cc2)CC1)c1ccc(F)cc1 | – | – | male Hartley guinea pigs, anaesthetized | intravenous, 0.1 mg/kg group, baseline before infusion | – | mean blood pressure | 37 ± 0.2 mmHg |
| O=C(O)CCC(=O)O.[2H]C([2H])([2H])Oc1cc(C)c2[nH]ccc2c1CN1CC[C@@H](C2CC2)C[C@H]1c1ccc(C(=O)O)cc1 | – | – | healthy Chinese subjects | 300 mg once daily, multiple ascending dose | – | subjects with drug-related TEAE | 25% |
| C[C@H](CS)C(=O)N1CCC[C@H]1C(=O)O | – | – | male Hartley guinea pigs, anaesthetized | intravenous, 3 mg/kg group, baseline before infusion | – | mean blood pressure | 37 ± 0.1 mmHg |
| Cc1cc(-c2nccc3c2ccn3CC(=O)Nc2ccc(-c3cnccn3)cn2)ccn1 | – | – | human | 5 mg once daily, multiple ascending dose | – | subjects with suture rupture | 0% |
| C[C@@H](O)CCOC(=O)C[C@@H](C)O | – | measured: systolic blood pressure | human | oral, dose not given, 60 min post-dose vs pre-dose | baseline: pre-dose | mean change | -7 mmHg |
| Cc1nccc2c1c(=O)n(C)c1cc(OC[C@@H](N)CC(C)C)c(C#N)cc21 | – | – | rat, plasma | intrathecal, 1 µg, 30 min | – | concentration | 3.7 nM |
| O=C(Cc1ccc(-c2cccs2)cc1)Nc1cc(C2CC2)[nH]n1 | – | – | – | – | – | pKa | 3.74 |
| CCc1cc(C(=O)NC)c2nccc(N3CCc4c(cc(Cn5ccnc5)cc4-c4cn(C)nc4C(F)(F)F)C3=O)c2c1 | – | – | Sprague Dawley rats | oral, 100 mg/kg twice daily, 7 days | baseline: vehicle | serum WBC change | -30.1% |
| C=CCn1c(=O)c2cnc(Nc3ccc(N4CCN(C)CC4)cc3)nc2n1-c1cccc(C(C)(C)O)n1 | – | – | human | oral, 200 mg once daily, monotherapy lead-in, -5 days | geometric mean | AUC(0-10) | 4.13 µM·h |

| SMILES | target or system | test | test system | conditions | scale | quantity | result |
| --- | --- | --- | --- | --- | --- | --- | --- |
| O=C(Nc1nc2cccc(-c3ccc(CN4CCS(=O)(=O)CC4)cc3)n2n1)C1CC1 | – | measured: non-infective cystitis | rheumatoid arthritis patients | oral, 150 mg once daily, 4 weeks, any relatedness | – | treatment-emergent adverse events | 0% |
| CCCc1c(-c2ccc(O)cc2)nn(-c2ccc(O)cc2)c1-c1ccc(O)cc1 | – | – | rat, Long-Evans, female, serum | subcutaneous, 2 mg/kg single dose | – | aglycone share of Cmax | 75% |
| O=C(N[C@H](Cc1c[nH]c2ccccc12)C(=O)Nc1ccncc1)c1ccc(-c2ccc(F)c(Cl)c2)cc1F | – | – | Swiss Webster mouse, female, brain | oral, 50 mg/kg, 2 h, 20% HPβCD vehicle | – | concentration | 230 nM |
| CN(C)C(=N)N=C(N)N | – | measured: toothache | healthy men | oral, dose not given, 8 days, treatment-emergent, crossover trial | – | subjects with adverse event | 0% |
| Oc1ccc2c(c1)OC[C@]1(O)Cc3cc(O)c(O)cc3[C@H]21 | Toxoplasma gondii | parasite growth, luciferase reporter | HFF, tachyzoite | 72 h | – | EC90 | 49.9 µM |
| O=C(O)CNC(=O)c1ncc(-c2ccc(Cl)cc2)cc1O | – | – | – | – | – | pKa (basic) | < 2 |
| CNCCOC12CC3(C)CC(C)(CC(Cn4ncc(-c5ccc(N6CCc7cccc(C(=O)Nc8nc9ccccc9s8)c7C6)nc5C(=O)O)c4C)(C3)C1)C2 | – | – | beagle dog, male, anaesthetised | intravenous bolus, 0.03 mg/kg, 120 min | baseline: baseline | QTcV interval change | 10 ms |
| CC[C@@H]1CN(C(=O)NCC(F)(F)F)C[C@@H]1c1cnc2cnc3[nH]ccc3n12 | – | population PK model | human, plasma | oral, outliers excluded | – | Q/F | 3.22 L/h |
| C[C@@]1(c2cc(NC(=O)c3ccc(C#N)cn3)ccc2F)C=CSC(N)=N1 | – | – | elderly humans, both sexes, plasma | oral, 1 mg single dose | – | dose-normalised AUC(0-last) | 54.7 ng·h/mL |
| C=CC1(C)CC(OC(=O)CSc2ccc(N)cc2)C2(C)C(C)CCC3(CCC(=O)C32)C(C)C1O (stereo not drawn) | – | – | sheep erythrocytes | 1 h, pH 7.5 | – | maximum haemolysis | 2% |
| COc1cc2[nH]c(C)c(-c3ccc4c(c3)OCCO4)c(=O)c2cc1Cl | – | – | PAMPA | pH 7.4 | – | Papp | 178 ×10⁻⁶ cm/s |
| Cc1ccc([C@@H]2O[C@H](CO)[C@@H](O)[C@H](O)[C@H]2O)cc1Cc1ccc(-c2ccc(F)cc2)s1 | – | measured: inorganic phosphorus | Japanese type 2 diabetes patients | 100 mg, day 4, 24 h urine collection | baseline: baseline | urinary phosphate excretion change | 76.5 mg |
| CCN1/C(=C/C(C)=O)Sc2ccc(F)cc21 | – | – | cynomolgus monkey | oral, 30 mg/kg, 0.5 h post-dose | – | mean blood pressure | 87 ± 6 mmHg |
| COc1cc2[nH]c(C)c(-c3ccc(OCc4ccccc4)cc3)c(=O)c2cc1Cl | – | – | PAMPA | pH 7.4 | – | Papp | < 5 ×10⁻⁶ cm/s |
| CCN1CCN(Cc2ccc(NC(=O)c3ccc(C)c(NC(=O)c4cncc(-c5cccs5)c4)c3)cc2C(F)(F)F)CC1 | – | – | C57BL/6 mice, epithelial lining fluid | intraperitoneal, 20 mg/kg | – | AUC(0-inf) | 6.54 µg·h/mL |
| C[C@@H]1CN(c2c(F)c(N)c3c(=O)c(C(=O)O)cn(C4CC4)c3c2F)C[C@H](C)N1 | – | – | male Hartley guinea pigs, anaesthetized | intravenous, 30 mg/kg group, baseline before infusion | – | mean blood pressure | 40 ± 0.3 mmHg |
| CNC(=O)c1ccc(-c2cnc3ncc(Cc4ccc5ncccc5c4)n3n2)cc1F | – | CTCAE v4.0, any causality | human cancer patients | oral, dose not given, dose escalation | – | alkaline phosphatase increase incidence (all grades) | 13% |
| Cc1nc(Nc2ncc(C(=O)Nc3c(C)cccc3Cl)s2)cc(N2CCN(CCO)CC2)n1 | – | – | human | oral, 100 mg | – | unrelated TEAEs | 0% |
| CN(C(=O)n1cnc(-c2cccnc2)c1)[C@H]1CC[C@H](O)CC1 | – | – | cynomolgus monkeys, plasma | oral, 1.0 mg/kg | – | AUC(0-t) | 108 ng·h/mL |
| Cc1nc2cccc(OCC(C)(C)C(=O)NC(C)C)c2c(N)c1C(=O)O | – | – | male Swiss albino CD-1 mouse, bone marrow | oral, 2000 mg/kg, 36 h | – | micronucleated PCE per 14000 PCE | 8 |
| CCc1c(-c2ccccc2)c(-c2ccccc2)nn1-c1ccccc1-c1cccc(OCC(=O)O)c1 | – | – | Sprague-Dawley rat | intravenous, dose not given | – | C0 | 13000 ng/mL and 15900 ng/mL and 15100 ng/mL |
| FC(F)(F)c1ccc(CNc2ccc(Cc3c[nH]c4ncc(Cl)cc34)cn2)cn1 | – | measured: Pruritus | patients with advanced solid tumours, non-TGCT cohort | oral, 1000 mg/day, grade 3 or higher | – | treatment-related adverse events | 0% |
| COc1ccc(C[C@@H](C)[C@@H](C)Cc2ccc(OC)c(OC)c2)cc1OC | – | – | beagle dog female, plasma | oral, 100 mg/kg/day, day 28, median | – | Tmax | 1 h |
| Cc1cc(C(=O)NC(C)(C)COc2cccc3c2C(N)=NS(=O)(=O)N3)cc(C)n1 | – | LC-MS metabolite profiling | Sprague-Dawley rat, both sexes, plasma | oral, 100 mg/kg of parent drug, 1 (unit not given) | higher = more metabolite | plasma peak area | 1.02e+06 a.u. |

Some of these lines once more:
| SMILES | target or system | test | test system | conditions | scale | quantity | result |
| --- | --- | --- | --- | --- | --- | --- | --- |
| C=CC1(C)CC(OC(=O)CSc2ccc(N)cc2)C2(C)C(C)CCC3(CCC(=O)C32)C(C)C1O (stereo not drawn) | – | – | sheep erythrocytes | 1 h, pH 7.5 | – | maximum haemolysis | 2% |
| COc1cc2[nH]c(C)c(-c3ccc4c(c3)OCCO4)c(=O)c2cc1Cl | – | – | PAMPA | pH 7.4 | – | Papp | 178 ×10⁻⁶ cm/s |
| Cc1ccc([C@@H]2O[C@H](CO)[C@@H](O)[C@H](O)[C@H]2O)cc1Cc1ccc(-c2ccc(F)cc2)s1 | – | measured: inorganic phosphorus | Japanese type 2 diabetes patients | 100 mg, day 4, 24 h urine collection | baseline: baseline | urinary phosphate excretion change | 76.5 mg |
| CCN1/C(=C/C(C)=O)Sc2ccc(F)cc21 | – | – | cynomolgus monkey | oral, 30 mg/kg, 0.5 h post-dose | – | mean blood pressure | 87 ± 6 mmHg |
| COc1cc2[nH]c(C)c(-c3ccc(OCc4ccccc4)cc3)c(=O)c2cc1Cl | – | – | PAMPA | pH 7.4 | – | Papp | < 5 ×10⁻⁶ cm/s |
